{"data": "Assay results pooled from the literature", "rep papain-like protease": "Replicase polyprotein 1ab, papain-like protease (rep, Severe acute respiratory syndrome coronavirus 2, UniProt P0DTD1)", "rep main protease": "Replicase polyprotein 1ab, main protease (rep, Severe acute respiratory syndrome coronavirus 2, UniProt P0DTD1)", "note": "Lines come from different studies, so protocols differ. ± marks the error that the study gave.", "sequence of UniProt P41143 (whole entry, looked up)": "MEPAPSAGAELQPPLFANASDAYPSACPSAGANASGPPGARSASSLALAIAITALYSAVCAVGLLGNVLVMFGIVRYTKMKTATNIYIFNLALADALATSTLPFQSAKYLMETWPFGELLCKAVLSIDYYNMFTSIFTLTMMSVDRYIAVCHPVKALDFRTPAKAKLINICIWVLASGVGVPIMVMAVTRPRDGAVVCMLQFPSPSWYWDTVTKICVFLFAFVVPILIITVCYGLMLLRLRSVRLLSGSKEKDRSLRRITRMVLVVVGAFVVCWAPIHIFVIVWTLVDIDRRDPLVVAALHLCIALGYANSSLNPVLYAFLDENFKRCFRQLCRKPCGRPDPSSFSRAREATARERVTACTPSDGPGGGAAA", "sequence of UniProt P41145 (whole entry, looked up)": "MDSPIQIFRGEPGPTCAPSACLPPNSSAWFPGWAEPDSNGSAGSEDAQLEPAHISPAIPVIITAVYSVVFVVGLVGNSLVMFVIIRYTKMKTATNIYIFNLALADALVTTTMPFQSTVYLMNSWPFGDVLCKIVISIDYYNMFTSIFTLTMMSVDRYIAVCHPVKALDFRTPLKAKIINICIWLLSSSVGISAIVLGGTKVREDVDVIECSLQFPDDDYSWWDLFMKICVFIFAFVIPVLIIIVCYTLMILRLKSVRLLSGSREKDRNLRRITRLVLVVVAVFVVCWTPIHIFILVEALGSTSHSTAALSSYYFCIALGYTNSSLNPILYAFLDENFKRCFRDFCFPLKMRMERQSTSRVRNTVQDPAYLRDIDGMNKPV"}
{"SMILES": "CC(C)C[C@H](NC(=O)[C@H](CO)NC(=O)[C@H](CCCCN)NC(=O)[C@H](CC(C)C)NC(=O)C(C)(C)NC(=O)[C@H](CCCCN)NC(=O)[C@H](CCC(=O)O)NC(=O)[C@H](C)NC(=O)[C@H](CC(C)C)NC(=O)[C@H](CC(N)=O)NC(=O)[C@@H]1CCCN1C(=O)[C@H](CC(C)C)NC(=O)[C@H](Cc1ccccc1)NC(=O)CNC(=O)[C@H](NC(=O)[C@@H](N)Cc1ccc(O)cc1)[C@H](C)O)C(N)=O", "tested on": "OPRD1 (Homo sapiens, UniProt P41143)", "assay": "ligand displacement, radioligand", "conditions": "pH 7.5, cell membranes", "endpoint": "Ki", "result": "15 nM"}
{"SMILES": "CCn1ccc(-c2cc(-c3cnn(CCOC)c3)cc([C@@H](C)NC(=O)c3cc(OCCN(C)C)ccc3C)c2)n1", "tested on": "rep papain-like protease", "assay": "enzyme activity, inhibitor, FRET", "endpoint": "Ki", "result": "37.2 nM"}
{"SMILES": "O=S(=O)(O)c1cccc2cccc(Nc3ccccc3)c12", "tested on": "rep main protease", "assay": "enzyme activity, inhibitor", "endpoint": "Ki", "result": "188000 nM"}
{"SMILES": "COc1ccc(-c2cc(=O)c3c(O)cc(O)c(-c4cc(-c5cc(=O)c6c(O)cc(OC)cc6o5)ccc4OC)c3o2)cc1", "tested on": "rep main protease", "assay": "enzyme inactivation, inactivator, inactivation kinetics", "conditions": "37 °C", "endpoint": "Ki", "result": "7590 nM"}
{"SMILES": "CC(=O)Nc1ccc(-c2cnc(N3C(=O)C(Cl)C3c3cc4ccccc4nc3Cl)s2)cc1 (stereo not shown)", "tested on": "rep papain-like protease", "assay": "papain-like protease activity, inhibitor", "test system": "SARS-CoV-2", "conditions": "15 min, 37 °C, added: substrate 40 µM", "endpoint": "Ki", "result": "350 ± 100 nM"}
{"SMILES": "CC(C)C[C@H](NC(=O)[C@H](CO[C@@H]1O[C@H](CO)[C@@H](O[C@@H]2O[C@H](CO)[C@H](O)[C@H](O)[C@H]2O)[C@H](O)[C@H]1O)NC(=O)[C@H](CCCCN)NC(=O)[C@H](CC(C)C)NC(=O)C(C)(C)NC(=O)[C@H](CCCCN)NC(=O)[C@H](CCC(=O)O)NC(=O)C(C)(C)NC(=O)[C@H](CC(C)C)NC(=O)[C@H](CC(N)=O)NC(=O)[C@@H]1CCCN1C(=O)[C@H](CC(C)C)NC(=O)[C@H](Cc1ccccc1)NC(=O)CNC(=O)[C@H](NC(=O)[C@@H](N)Cc1ccc(O)cc1)[C@H](C)O)C(N)=O", "tested on": "OPRK1 (Homo sapiens, UniProt P41145)", "assay": "ligand displacement, radioligand", "conditions": "pH 7.5, cell membranes", "endpoint": "Ki", "result": "17 nM"}
{"SMILES": "COc1ccc(-c2cc(=O)c3c(O)cc(O)cc3o2)cc1Oc1ccc(-c2cc(=O)c3c(O)cc(O)cc3o2)cc1", "tested on": "rep papain-like protease", "assay": "enzyme activity, inhibitor", "endpoint": "Ki", "result": "19700 nM"}
{"SMILES": "C=C1CC[C@@H]2[C@](C)(COC(C)=O)[C@H](OC(C)=O)CC[C@@]2(C)[C@@H]1C[C@H](SC(=S)N1CCN(C(c2ccc(F)cc2)c2ccc(F)cc2)CC1)C1=CCOC1=O", "tested on": "rep main protease", "assay": "enzyme activity, inhibitor, fluorescence", "endpoint": "Ki", "result": "8300 nM"}
{"SMILES": "[2H]C1([2H])CC[C@@H](C[C@@H](C#N)NC(=O)[C@@H]2[C@@H]3[C@H](CN2C(=O)[C@@H](NC(=O)C(F)(F)F)C(C)(C)C)C3(C)C)C(=O)N1", "tested on": "rep main protease", "assay": "enzyme activity, inhibitor", "endpoint": "Ki", "result": "2.1 nM"}
{"SMILES": "Cc1ccc(OCCN(C)C)cc1C(=O)N[C@H](C)c1cc(-c2cnn(C)c2)cc(-c2cnn(CC(F)(F)F)c2)c1", "tested on": "rep papain-like protease", "assay": "enzyme activity, inhibitor, FRET", "endpoint": "Ki", "result": "39.8 nM"}
{"SMILES": "Cc1ccc(C(=O)NCc2ccc(C)c(C(=O)N[C@H](C)c3cccc4ccccc34)c2)cc1Br", "tested on": "rep papain-like protease", "assay": "inhibitor", "endpoint": "Ki", "result": "7400 to 7800 nM"}
{"SMILES": "CCCCCCCCCCCCCCCC(=O)N[C@@H](CCC(=O)NCCOCCOCCC(=O)NCCOCCOCCC(=O)NCCCC[C@H](NC(=O)[C@H](CC(=O)O)NC(=O)[C@H](CC(C)C)NC(=O)[C@H](Cc1ccc(O)cc1)NC(=O)[C@H](CCCCN)NC(=O)[C@H](CO)NC(=O)[C@H](Cc1ccc(O)cc1)NC(=O)[C@H](CC(=O)O)NC(=O)[C@H](CO)NC(=O)[C@@H](NC(=O)[C@H](Cc1ccccc1)NC(=O)[C@@H](NC(=O)CNC(=O)[C@H](CCC(N)=O)NC(=O)[C@@H](CO)NC(=O)[C@@H](N)Cc1c[nH]cn1)[C@@H](C)O)[C@@H](C)O)C(=O)N[C@@H](CCCNC(=N)N)C(=O)N[C@@H](CCCNC(=N)N)C(=O)N[C@@H](C)C(=O)N[C@@H](CCC(N)=O)C(=O)N[C@@H](CC(=O)O)C(=O)N[C@@H](Cc1ccccc1)C(=O)N[C@H](C(=O)N[C@@H](CCC(N)=O)C(=O)N[C@@H](Cc1c[nH]c2ccccc12)C(=O)N[C@@H](CC(C)C)C(=O)N[C@@H](CC(C)C)C(=O)N[C@@H](CC(N)=O)C(=O)N[C@H](C(=O)NCC(=O)NCC(=O)N1CCC[C@H]1C(=O)N[C@@H](CO)C(=O)N[C@@H](CO)C(=O)NCC(=O)N[C@@H](C)C(=O)N1CCC[C@H]1C(=O)N1CCC[C@H]1C(=O)N1CCC[C@H]1C(=O)N[C@@H](CO)C(N)=O)[C@@H](C)O)C(C)C)C(=O)O", "assay": "item: AST", "test system": "Sprague-Dawley rat, female", "conditions": "subcutaneous, 500 µg/kg once daily, 14 days", "endpoint": "serum enzyme activity", "result": "104 ± 36 U/L"}
{"SMILES": "Cc1ccc(OCCN(C)C)cc1C(=O)N[C@H](C)c1cc(-c2cnn(C)c2)cc(-c2cnn(C(F)F)c2)c1", "tested on": "rep papain-like protease", "assay": "enzyme activity, inhibitor, FRET", "endpoint": "Ki", "result": "33.6 nM"}
{"SMILES": "O=C(Oc1cncc(Cl)c1)c1cccs1", "tested on": "rep main protease", "assay": "enzyme activity, inhibitor", "endpoint": "Ki", "result": "1800 nM"}
{"SMILES": "C=C1CC[C@@H]2[C@](C)(COC(C)=O)[C@H](OC(C)=O)CC[C@@]2(C)[C@@H]1C[C@H](SC(=S)N1CCc2ccccc2C1c1ccccc1)C1=CCOC1=O (stereo partly shown)", "tested on": "rep main protease", "assay": "enzyme activity, inhibitor, fluorescence", "endpoint": "Ki", "result": "5000 nM"}
{"SMILES": "CC[C@H](C)[C@H](NC(=O)[C@H](CCCCN)NC(=O)[C@H](CCCCN)NC(=O)[C@H](CC(C)C)NC(=O)[C@H](Cc1c[nH]c2ccccc12)NC(=O)CN)C(=O)NCC(=O)N[C@@H](CCCCN)C(=O)N[C@@H](CCCCN)C(=O)N[C@H](C(=O)N[C@@H](CCC(=O)O)C(=O)N[C@@H](CCCNC(=N)N)C(=O)N[C@H](C(=O)NCC(=O)N[C@@H](CCC(N)=O)C(=O)N[C@@H](Cc1c[nH]cn1)C(=O)N[C@H](C(=O)N[C@@H](CCCNC(=N)N)C(=O)N[C@@H](CC(=O)O)C(=O)N[C@@H](C)C(=O)N[C@H](C(=O)N[C@H](C(=O)N[C@@H](CCC(N)=O)C(=O)N[C@H](C(=O)N[C@H](C(=O)NCC(=O)N[C@H](C(=O)N[C@@H](C)C(=O)N[C@@H](CCC(N)=O)C(=O)N[C@@H](CCC(N)=O)C(=O)N[C@@H](C)C(=O)N[C@@H](C)C(=O)N[C@@H](CC(N)=O)C(=O)N[C@H](C(=O)N[C@@H](C)C(=O)N[C@@H](C)C(=O)N[C@H](C(=O)N[C@@H](CC(C)C)C(=O)N[C@@H](CCCCN)C(N)=O)[C@@H](C)O)C(C)C)C(C)C)[C@@H](C)CC)[C@@H](C)O)[C@@H](C)CC)[C@@H](C)O)[C@@H](C)O)C(C)C)[C@@H](C)CC", "tested on": "Escherichia coli", "assay": "broth microdilution", "test system": "D31, CAMHB", "endpoint": "MIC", "result": "4 µg/mL"}
{"note": "A few entries again:"}
{"SMILES": "CCn1ccc(-c2cc(-c3cnn(CCOC)c3)cc([C@@H](C)NC(=O)c3cc(OCCN(C)C)ccc3C)c2)n1", "tested on": "rep papain-like protease", "assay": "enzyme activity, inhibitor, FRET", "endpoint": "Ki", "result": "37.2 nM"}
{"SMILES": "O=S(=O)(O)c1cccc2cccc(Nc3ccccc3)c12", "tested on": "rep main protease", "assay": "enzyme activity, inhibitor", "endpoint": "Ki", "result": "188000 nM"}
{"SMILES": "COc1ccc(-c2cc(=O)c3c(O)cc(O)c(-c4cc(-c5cc(=O)c6c(O)cc(OC)cc6o5)ccc4OC)c3o2)cc1", "tested on": "rep main protease", "assay": "enzyme inactivation, inactivator, inactivation kinetics", "conditions": "37 °C", "endpoint": "Ki", "result": "7590 nM"}
